Assay results collected from several papers.
Numbered parts are unrelated; each lists some results of a single study.

Block 1
Target: Histone acetyltransferase KAT6A, winged helix 2, GST fusion (KAT6A, Homo sapiens, UniProt Q92794, residues 85-181)
Method: protein binding microarray
Form: double-stranded DNA, one strand shown
Matrix: in vitro
Concentration: not given
Setting: 8-mer, flanks averaged, mean of 2 arrays, mostly near background
Relative to: not given
Direction: higher = stronger binding
Target sequence (chain): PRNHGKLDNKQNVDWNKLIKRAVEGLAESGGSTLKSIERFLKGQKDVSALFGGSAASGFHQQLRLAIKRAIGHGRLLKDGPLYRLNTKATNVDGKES
Strand | E-score
GTTCGGCA | 0.0579
ATTGAAAA | 0.00916
AAAGGACA | -0.0675
AGCACAGC | 0.15
ATCCTCTG | -0.11
CGGACGCC | 0.184
CACAATCC | 0.0691
TGCAAGAA | 0.141
AAGTTCGC | 0.0576
AAAGGGGA | -0.158
TAAACAAA | -0.11
AAAGGGCC | -0.117
CCTAGCGA | -0.0223
AGAACTCG | 0.00133
CTGAAATA | 0.0835
CGATCTTC | 0.0668
AACAGGTA | -0.239
ATGTAGTA | 0.0369
GGTGGAGA | -0.171
AAATACAC | -0.182
CCATCTCG | -0.00829
ACCAGCGG | 0.134
GCCCCGCC | 0.164
TATTTTCA | 0.0893
GACCTCCC | 0.0543

Block 2
Target: RING finger protein unkempt homolog, zinc fingers 1-6, GST-SBP tag (UNK, Homo sapiens, UniProt Q9C0B0, residues 30-357)
UniProt Q9C0B0, sequence (30-357, looked up): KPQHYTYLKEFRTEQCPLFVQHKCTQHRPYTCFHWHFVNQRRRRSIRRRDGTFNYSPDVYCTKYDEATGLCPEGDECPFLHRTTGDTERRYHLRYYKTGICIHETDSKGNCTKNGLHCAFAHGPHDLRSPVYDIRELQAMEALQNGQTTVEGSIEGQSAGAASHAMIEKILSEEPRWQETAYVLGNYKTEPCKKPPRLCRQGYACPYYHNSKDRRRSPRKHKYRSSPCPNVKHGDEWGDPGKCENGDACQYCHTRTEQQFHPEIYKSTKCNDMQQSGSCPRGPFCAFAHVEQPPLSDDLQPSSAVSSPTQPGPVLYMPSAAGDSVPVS
Method: RNA Bind-n-Seq
Form: RNA
Matrix: in vitro
Concentration: not given
Setting: RNA with constant flanks, human and mouse sites, ends assumed
Relative to: input RNA pool
Direction: higher = stronger binding
All sequences stand within: GGGAGUUCUACAGUCCGACGAUC … CAACAGAGGAUUGAGCAUCA
Strand | bound/input enrichment [ratio]
CUCCAGGUUCCAGUAAAAUUCUUCUGACCGAAACCAAUGUGGGUGUUAGAAAAAUUACCAUAUAGCUUAAUAUGUUUAUUAGUUCUCUUUGGAAAAAAACUACCACUGUGGUCUUAAAAG | 2.06
AAGAAGUUCAAGGAAGUUGGAGAGGCCUUUACUAUCCUCUCUGAUCCCAAGAAAAAGACUCGCUAUGACAGUGGACAGGACCUAGAUGAGGAGGGCAUGAAUAUGGGUGAUUUUGAUCCA | 0.466
AUCAAAGGUGACAUCACACCUUUAAUGGCUGCUGCUAAUGGAGGACAUGUCAAAAUCGUGAAGUUGCUGCUAGCUCAUAAAGCUGAUGUCAAUGCACAGUCUUCAACAGGCAACACAGCU | 0.14
CUCCUUCAGGACAUUAUUCUCCAAGUAUUUAAAUAUUUGCCUCUUCUUGACCGGGCUCAUGCUUCACAAGUUUGCCGCAACUGGAACCAGGUAUUUCACAUGCCUGACUUGUGGAGAUGU | 0.286
GGAAAAAACAGCCUAUCUGUACUUUCACCGAAAAUUGGAAAUUUGCUAUUUCUUUCCUACUUAGAUGUAAAAGGUAAUCACUUUGAAAUCCUCCCUCCUGAACUGGGUGACUGUCGGGCU | 1.08
ACCUUUGAUCAGGCCACAGGUGGGACUGCGCAAUUUGAAGCACACUCAGAUGCUCAGGCUUUGGUCCUCUUAGAUGUCACUCCUGACCAGUCAAUGGUAGAUGAAGGAAUGGCUCGGGAA | 0.204
CAGACAGAAGUAGUGAUCCGAGACAUUGACGAGAGGGCUAUGGAAUUACUGAUUGACUUUGCGUAUACCUCCCAGAUAACAGUAGAAGAGGGCAAUGUUCAGACUCUUCUGCCAGCUGCU | 0.152
AGCAAAGAAGAAGUUAUCAAGUUCUUGGAAAAUACUCCAUCCAGUCUGAAUAUAGAAGAUAUAGAAGACCUUUUCUCUCUGGCUCAGUAUUAUUGCAGCAAAACACCGGCUUCUUUUAGG | 0.432
AGGCAUGAGCUCUUGGCAGGAGUGGGCUCUGAGCAGGUGUCAUAUUCAUUCUUUACAAACCAUAGAGAAAUAAUUUCAUCCCCCAACUGUAGUAAUUGUUACAAUUUUAUAUAAAAAAUU | 20.7
CCAGGACCGAGGGAGUUGAGGAUGUGACCCAGGACGGGGGGCGGGGGGGGGGGUUGUGUGUGUGGAAGGGUGGGAAGAGGCAGGAAGGCCUUGGAAGCUAACAUGCUUUCGCUACUGGAG | 0.165
GGGAGGAAUGAAUUUAUCUAGCAAGCUGGCCCAGCUCACUUGUCAUGGCAAUCUUUGCCAUAGCUUUCAGUCUUUCAACACUUCCUACACAGAUACAGGAUUAUGGGGACUGUAUAUGGU | 0.324

Block 3
Target: RNA binding protein fox-1 homolog 2, RRM domain, GST-SBP tag (RBFOX2, Homo sapiens, UniProt O43251-10, residues 100-194)
Method: RNA Bind-n-Seq
Form: RNA
Matrix: in vitro
Concentration: 365 nM
Setting: natural RNA segment, single round, ends assumed
Relative to: no-protein control
Direction: higher = stronger binding
All sequences stand within: GGGAGUUCUACAGUCCGACGAUC … UGGAAUUCUCGGGUGCCAA
Construct (chain): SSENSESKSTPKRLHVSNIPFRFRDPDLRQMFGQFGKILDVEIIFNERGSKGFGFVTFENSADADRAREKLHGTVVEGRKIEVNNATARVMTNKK
Strand | RBNS enrichment (R)
UGAAGGCCAAGUGAUGGCUUCUGUUCUGGUGGCUUGAACUAACAGGUGGUGUAUCGCCACCUGACUCCUUGUUUAAUGACAGAGGUCUGGGAUGUCACAGUCCAAAAGGA | 0.23
CUGGUGAUGCCUUGUUUGGGGUUCUGUGGGUUUGGGUGGGAAGAGGGCCAUCUGCCUGAAUGUAACCUGCUAGCUCUCCGAAGGCCCUGCGGGCCUGGCUUGUGUGAGCG | 1.89
CUUAUCCAUAAAUAACUACAUGACAGCAUUAAAAUCUGUAGCAAAGAGAUAUAAACUCUAGAGUGAGUCUAUUGGGAAUCAGCAGAUUAUACAUACCUGGGGCAUCUUCU | 0.689
CAGCCAGGAGCUCCCUGGCACCGCAGGACCUCGUGGUACUCUUGCCUUAGAUUUUACACACACUCCACAGCCAAGCACUGCCACGGUCCUCCAGGACCUGGGAAGCAAAG | 0.222
UCUUUUCUAAAUGAAACUCCAUGUAGCAACCAGGACGAAGUUGAGAAGGAAAACGCCAAAUGCUUUGGUUAUUAGAGUUUAAUAGGUAAGCUCUGUUACACUAGGUGUUA | 0.518
UCAGGGAGCUCUUCUCUGGGGCUGGAACAGUUGAUUAUGCAACCCCAUUGUGUGGAGAUUGGAUCAACUGAGUUGUGUUAUUUUUGUUUUAAGUCACCUUGUGCGAGAAC | 1.13
UUUCUGCUGUACUAUCUGGAUACUAAAAUGUUACGGAAGUAGCUCUUUGUUCUCCCUCACUCUGCCCUUAGUUAAUAGAAAUUCAGACUCGCCAAGUAAGGCUUCGUGCA | 1.82
CAAUAUUGUAACCCCACUCUAGGCACUUGCCUUUAAACUGUCUCAGCCCUUCAGAAGGGCUCAACUACUGUCCUAUACAAUCAAGUGACUGAAAUUCCUGGGAAGACACU | 0.403
AACUGAUGAUUGAAGAGUAAAUGGGGGAAAAGGCAGUGUUUAAUUAACAUAAAAACUCAUUUUUGUAUUUCUUGGAUUACUUUGACUAUUCUAAUGUUUAAUUACAUAUG | 0.593
GUGUACACUUUUUCUCUAAAAUAAACUUUUGUGGCUUUAGUGUCUUAGAAGGAGAGUCCUAACAUGAAAUGGUCAUCUCUUAGAUUUGGGAGGAAGGAAGCCACUGUUAA | 0.582
UUUAUUUUGUUAUAAUUUAGUUACCAUUUUCAGUGUUAUUUCAAAGGUUCUUUGAAGAAUUUUGGGGCAGGGCAUCAGAUUAGAGUUUUAAAAUUUGAGUAUUUUGGAUA | 0.696
UGUUAAGUACUCAGGCAUGACUACGCUAUCAGCUACGAAACAUGUUAACUCUCACUAGGAAUAGCUUUGGCUUAAGAGUCCAGCAGGGGCAACUUCCUGAGAUGAAUGAA | 2.21

Block 4
Target: Sal-like protein 4, full length isoform B (SALL4, Homo sapiens, UniProt Q9UJQ4-2, residues 1-616)
Method: universal PBM
Form: double-stranded DNA, one strand shown
Matrix: in vitro
Concentration: not given
Setting: 8-mer, flanks averaged, mean of replicates
Direction: higher = stronger binding
Construct (chain): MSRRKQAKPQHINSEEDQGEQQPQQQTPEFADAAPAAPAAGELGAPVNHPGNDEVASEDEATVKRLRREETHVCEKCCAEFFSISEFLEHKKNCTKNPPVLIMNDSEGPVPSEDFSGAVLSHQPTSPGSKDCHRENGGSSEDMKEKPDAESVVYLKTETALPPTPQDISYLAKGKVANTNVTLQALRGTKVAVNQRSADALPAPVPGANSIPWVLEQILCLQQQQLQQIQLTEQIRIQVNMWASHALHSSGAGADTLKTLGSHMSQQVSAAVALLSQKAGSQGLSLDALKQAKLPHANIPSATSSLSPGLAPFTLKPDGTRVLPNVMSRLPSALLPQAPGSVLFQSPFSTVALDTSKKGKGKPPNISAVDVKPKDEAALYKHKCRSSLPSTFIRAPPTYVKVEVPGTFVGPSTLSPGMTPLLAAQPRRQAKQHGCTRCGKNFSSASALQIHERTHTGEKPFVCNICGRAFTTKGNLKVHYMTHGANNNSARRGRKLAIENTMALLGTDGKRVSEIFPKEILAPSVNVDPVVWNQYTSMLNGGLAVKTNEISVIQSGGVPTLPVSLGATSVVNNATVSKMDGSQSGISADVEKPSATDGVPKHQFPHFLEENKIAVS
Strand | E-score
ATGACTAA | 0.165
ACGCACGT | -0.0315
GGTTGCAC | -0.212
ACCTAGAG | -0.00638
AAAAAGTC | -0.0135
GGAGAACA | 0.0152
AAGGCGTA | 0.00886
TCGTATCA | 0.0865
ACGGTGGG | -0.171
CCAAAGAC | -0.14
CTAATGGA | -0.00348
GAGTTGCC | -0.217
CAAATAAC | 0.268
TAGATTAA | 0.206
CCACATAG | -0.202
ACCTCCGA | -0.0646
CGACTAAA | 0.0197
GAATCAAA | -0.0608
ACCTAACG | -0.0325
AACGTAAT | 0.296
CTTGCGGA | -0.214
CGGGATCC | -0.238
AAGGTATG | 0.15
AGGGGGCG | -0.207
AACTACCC | 0.0679

Block 5
Target: Prothrombin, mature alpha-thrombin (F2, Homo sapiens, UniProt P00734)
Method: aptamer microarray, sandwich
Form: DNA with 2'F-ANA
Matrix: in vitro
Concentration: 200 nM
Setting: whole 15-mer aptamer, many near background
Added: Cy3 exosite-II aptamer, 400 nM
Direction: higher = stronger binding
Strand: GGTTGGTGTGGTTGG
Modification | mean fluorescence intensity [a.u.]
2'F-ANA at 1 3 4 7 8 14 15 | 89.9
2'F-ANA at 1 5 9 12 14 15 | 47.6
2'F-ANA at 2 3 4 6 7 8 10 11 12 13 15 | 207
2'F-ANA at 1 4 8 10 14 | 48.4
2'F-ANA at 1 3 4 7 8 9 13 | 162
2'F-ANA at 7 8 9 11 12 13 15 | 754
2'F-ANA at 1 2 6 7 8 9 10 11 12 14 | 50.1
2'F-ANA at 1 4 5 7 8 9 10 11 12 13 14 | 42.7
2'F-ANA at 1 3 7 11 | 300
2'F-ANA at 4 6 7 8 11 13 14 15 | 79.4
2'F-ANA at 4 8 10 11 13 14 | 58
2'F-ANA at 2 4 5 7 9 10 11 12 13 14 | 56.5
2'F-ANA at 1 2 3 5 7 14 | 47.5
2'F-ANA at 3 4 5 6 8 9 10 11 13 | 52.2
2'F-ANA at 1 3 4 6 9 11 12 | 280
2'F-ANA at 1 4 5 7 9 11 12 13 15 | 61.6
2'F-ANA at 1 3 4 6 8 9 11 15 | 158
2'F-ANA at 5 8 9 10 12 13 14 | 46
2'F-ANA at 1 2 4 5 6 7 8 9 11 13 | 51.6

Excerpt of the above (block 3):
Strand | RBNS enrichment (R)
CUUAUCCAUAAAUAACUACAUGACAGCAUUAAAAUCUGUAGCAAAGAGAUAUAAACUCUAGAGUGAGUCUAUUGGGAAUCAGCAGAUUAUACAUACCUGGGGCAUCUUCU | 0.689
CAGCCAGGAGCUCCCUGGCACCGCAGGACCUCGUGGUACUCUUGCCUUAGAUUUUACACACACUCCACAGCCAAGCACUGCCACGGUCCUCCAGGACCUGGGAAGCAAAG | 0.222
UCUUUUCUAAAUGAAACUCCAUGUAGCAACCAGGACGAAGUUGAGAAGGAAAACGCCAAAUGCUUUGGUUAUUAGAGUUUAAUAGGUAAGCUCUGUUACACUAGGUGUUA | 0.518
UCAGGGAGCUCUUCUCUGGGGCUGGAACAGUUGAUUAUGCAACCCCAUUGUGUGGAGAUUGGAUCAACUGAGUUGUGUUAUUUUUGUUUUAAGUCACCUUGUGCGAGAAC | 1.13
UUUCUGCUGUACUAUCUGGAUACUAAAAUGUUACGGAAGUAGCUCUUUGUUCUCCCUCACUCUGCCCUUAGUUAAUAGAAAUUCAGACUCGCCAAGUAAGGCUUCGUGCA | 1.82
CAAUAUUGUAACCCCACUCUAGGCACUUGCCUUUAAACUGUCUCAGCCCUUCAGAAGGGCUCAACUACUGUCCUAUACAAUCAAGUGACUGAAAUUCCUGGGAAGACACU | 0.403
